Measured values pooled from the literature.
Numbered parts are unrelated; each lists some results of a single study.

Block 1
Target: Sal-like protein 4, full length isoform A (SALL4, Homo sapiens, UniProt Q9UJQ4, residues 1-1053)
Sequence of UniProt Q9UJQ4 (whole entry, looked up): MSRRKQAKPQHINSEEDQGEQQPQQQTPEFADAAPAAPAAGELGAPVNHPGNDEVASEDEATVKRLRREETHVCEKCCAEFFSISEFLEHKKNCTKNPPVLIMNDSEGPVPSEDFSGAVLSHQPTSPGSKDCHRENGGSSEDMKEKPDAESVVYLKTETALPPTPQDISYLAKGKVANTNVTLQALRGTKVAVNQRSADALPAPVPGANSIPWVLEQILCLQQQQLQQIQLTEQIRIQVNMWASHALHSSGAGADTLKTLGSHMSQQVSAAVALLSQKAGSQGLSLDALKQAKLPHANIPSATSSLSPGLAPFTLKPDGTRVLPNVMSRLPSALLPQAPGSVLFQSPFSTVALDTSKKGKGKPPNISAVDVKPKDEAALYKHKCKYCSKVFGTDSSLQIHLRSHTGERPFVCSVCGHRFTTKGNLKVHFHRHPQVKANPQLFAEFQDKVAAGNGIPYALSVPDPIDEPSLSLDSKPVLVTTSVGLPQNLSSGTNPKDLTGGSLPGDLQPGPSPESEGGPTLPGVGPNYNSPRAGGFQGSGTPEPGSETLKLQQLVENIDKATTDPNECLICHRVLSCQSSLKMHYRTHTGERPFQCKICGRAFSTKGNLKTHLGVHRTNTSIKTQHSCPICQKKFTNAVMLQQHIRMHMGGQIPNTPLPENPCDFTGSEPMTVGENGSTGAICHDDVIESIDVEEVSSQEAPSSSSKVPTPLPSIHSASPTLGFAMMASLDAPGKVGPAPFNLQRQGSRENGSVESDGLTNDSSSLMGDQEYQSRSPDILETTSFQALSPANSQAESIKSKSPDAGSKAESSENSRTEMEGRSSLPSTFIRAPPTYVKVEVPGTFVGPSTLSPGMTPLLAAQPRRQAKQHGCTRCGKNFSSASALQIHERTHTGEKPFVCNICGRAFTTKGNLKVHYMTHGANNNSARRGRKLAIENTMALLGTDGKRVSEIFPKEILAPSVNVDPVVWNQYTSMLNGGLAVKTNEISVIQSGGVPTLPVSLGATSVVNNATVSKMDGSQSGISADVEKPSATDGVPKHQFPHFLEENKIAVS
Method: universal PBM
Form: double-stranded DNA, one strand shown
Sample: in vitro
Concentration: 600 nM
Setting: 8-mer, flanks averaged, mean of replicates
Reading: higher = stronger binding
Strand	E-score
CCTAATAC	0.142
TGCTACAA	0.175
TAGTTTGA	0.176

Block 2
Target: RNA binding protein fox-1 homolog 2, RRM domain, GST-SBP tag (RBFOX2, Homo sapiens, UniProt O43251-10, residues 100-194)
Method: RNA Bind-n-Seq
Form: RNA
Sample: in vitro
Concentration: 365 nM
Setting: natural RNA segment, single round, ends assumed
Reference: no-protein control
Reading: higher = stronger binding
Residues (chain): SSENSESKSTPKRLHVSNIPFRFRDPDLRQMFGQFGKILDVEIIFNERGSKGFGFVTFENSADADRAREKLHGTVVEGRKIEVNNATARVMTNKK
Strand	RBNS enrichment (R)
GGGAGUUCUACAGUCCGACGAUCAGUUAAAGGCCAUGCUUACAGCUUAGAAAUGAAGCCUUAAGCUGCAUCAAGUUACGAAGUGAUUAAUUUCCUUCUCAGCAAACCUCCGGGAGGUUCCAGAAUGAGUUCUUUGGAAUUCUCGGGUGCCAA	0.297
GGGAGUUCUACAGUCCGACGAUCAGUAUGUUCUGUGUCUCCACUAGCCACUUCUGGGGAGUGCCUGAAGCUCUUUGACUUUGACAAGAGGUUCUAGUUAAAGCACACACUUAAUCUACAGCCACUCUCUACCUUGGAAUUCUCGGGUGCCAA	0.274
GGGAGUUCUACAGUCCGACGAUCUUGAAAAAAUAGGAACUCGGGCAGCAGAAUCAGAUUGGCAGAAUCUUUAGACUACACAGGCAAUAAUCAAGUCUGCUGUUUUGGCCUUUCGUAGUAGAAGUGGUUGUAGUUGGAAUUCUCGGGUGCCAA	0.365
GGGAGUUCUACAGUCCGACGAUCGUGUGGAACAGCAGAGAAAGUCCCGUCCCUAUCUCUGACUGUGCAGUGAGUGUGGCCUAGGAACAGGUCCCUUCCUAAGCUCUAGUGUCCCCAUCUGUAAAAUGGGCUGAUGGAAUUCUCGGGUGCCAA	0.485

Block 3
Target: Centromere-binding protein 1, full length, His-tagged (CBF1, Saccharomyces cerevisiae, UniProt P17106, residues 1-351)
Sequence of UniProt P17106 (whole entry, looked up): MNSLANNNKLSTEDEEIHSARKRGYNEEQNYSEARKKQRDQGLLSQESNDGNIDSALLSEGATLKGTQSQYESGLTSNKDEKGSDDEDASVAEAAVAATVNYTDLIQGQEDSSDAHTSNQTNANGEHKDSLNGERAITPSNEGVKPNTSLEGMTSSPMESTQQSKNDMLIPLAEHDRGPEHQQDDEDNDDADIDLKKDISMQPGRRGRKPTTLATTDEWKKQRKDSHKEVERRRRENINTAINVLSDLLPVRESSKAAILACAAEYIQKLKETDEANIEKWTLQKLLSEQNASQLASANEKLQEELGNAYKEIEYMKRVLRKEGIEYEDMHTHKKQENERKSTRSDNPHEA
Method: competition protein-binding microarray
Form: double-stranded DNA, one strand shown
Sample: in vitro
Concentration: 2 µM
Setting: whole 60-bp probe, lowest competitor level
Together with: Pho4 competitor, 0.05 µM
Reading: higher = stronger binding
Strand	fluorescence intensity [a.u.]
CTGCTTCACAGTTTGCACGTAACTTGCTGAGGGGCCGTCTTGATTCGCTTGACGCTGCTG	80.2
AAATTACTAAGTTGGTCAGTGGGTGACGCCGTATGAGTCTTGATTCGCTTGACGCTGCTG	67.7
GTTTCTCTACGATTACACGGGTGAAGCCATTCTCTGGTCTTGATTCGCTTGACGCTGCTG	59.9
TCAGCTTAGCACAGACACGTTGTGGTCTGTAGGTCAGTCTTGATTCGCTTGACGCTGCTG	75.1

Further values, each from its own experiment
Substance	target	test	test system	setting	how to read	endpoint	result
PhoQ, residues 284 288 289 292 302 303 SMMNNA	PhoP, residues 12 14 15 18 19 IQSYL (Escherichia coli, UniProt P23836)	Sort-seq, item: YFP reporter	E. coli	PhoQ-PhoP variant library, together with: 10 µM Mg2+	reference: high Mg2+ state, higher = stronger signaling	fold induction	15.9
